Measured values gathered from unrelated publications.
Numbered parts are unrelated; each lists some results of a single study. Changes are numbered by the printed parent chain.

Set 1 — method: RNA Bind-n-Seq; form: RNA; matrix: in vitro; concentration: not given; setting: RNA with constant flanks, ends assumed; reference: input RNA pool; direction: higher = stronger binding; endpoint: bound/input enrichment
Target: RING finger protein unkempt homolog, zinc fingers 1-6, GST-SBP tag (UNK, Homo sapiens, UniProt Q9C0B0, residues 30-357)
Target sequence (chain): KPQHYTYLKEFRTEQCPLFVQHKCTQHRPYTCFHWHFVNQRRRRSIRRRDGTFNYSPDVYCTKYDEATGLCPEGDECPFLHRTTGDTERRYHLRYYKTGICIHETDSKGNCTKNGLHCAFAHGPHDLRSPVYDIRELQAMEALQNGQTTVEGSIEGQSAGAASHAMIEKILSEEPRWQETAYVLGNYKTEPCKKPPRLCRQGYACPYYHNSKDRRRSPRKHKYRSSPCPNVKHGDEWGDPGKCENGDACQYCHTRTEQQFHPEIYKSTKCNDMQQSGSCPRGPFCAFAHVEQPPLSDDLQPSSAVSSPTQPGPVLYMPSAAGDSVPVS
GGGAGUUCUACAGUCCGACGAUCAAAAAAAAGCCUAUUAAUAGGGUUUCUGCGCGGUGCAGGGUUGUAAACCUGCUUUAUCUUUCCGGAUUAUUCCUAAAUGCAUCUUCUUUAUAAACUUGACUUGCUAUCUCAGCAAGAUAACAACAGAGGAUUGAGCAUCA: 0.126 ratio
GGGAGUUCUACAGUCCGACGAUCUAGCCAAGGUUUUUACAAAGGGGAAAGGAAAAGAAAACAAAAACGCAAGCUCCAUGUGUACCGCUGAACUUUUAUAUGUUUCUUGCCAGCCCCUCCGCUCCCUUCCAUCUCUAGCCUCUGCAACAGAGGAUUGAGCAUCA: 0.231 ratio
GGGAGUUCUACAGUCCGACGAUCGAAGAUUUCCUGAAAAAAUGGGAGACCCCUUCUCAGAAUACAGCCCAGUUGGAUCAGUUUGACCGAAUCAAGACCCUUGGCACCGGCUCCUUUGGGCGAGUGAUGCUGGUGAAGCACAAGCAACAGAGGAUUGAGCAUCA: 0.231 ratio
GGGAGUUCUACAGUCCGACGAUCGCUUACAAAAUCAAAUACCCGGAGAACUUCUUUCUUCUAAGAGGAAACCAUGAGUGUGCCCGCAUCAAUCGCAUUUAUGGAUUCUACGAUGAGUGUAAACGAAGAUUUAAUAUUAAAUUGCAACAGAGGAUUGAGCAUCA: 0.299 ratio
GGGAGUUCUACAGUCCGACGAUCCCAACGUUAGAAGCAGCCUGGCCUCAUCUGCAGCUUGUUUAUGAAUUUUUCUUAAGAUUUUCCGAGUCUCCAGAUUUCCAACCCAAUAUAGCAAAGAAAUAUAUUGAUCAGAAGUUUGUACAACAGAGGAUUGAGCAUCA: 2.95 ratio
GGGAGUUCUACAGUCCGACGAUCUAUGAGAAGGAUGCACUGAGCAUAAGGAAGGUCGGAGAGGAGGAGUGUGUGGCUCCCGGCAGUUUCUUUUUCUGGAAGUGUUUGCAUGGAGAAAGCUCCACUGAAGAGAUGUGCCACAGCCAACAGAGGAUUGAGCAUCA: 0.126 ratio
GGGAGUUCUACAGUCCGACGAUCGAACACAGUAUGUAGGUCAAACUGGCAGUAACAGUGUACAGCCUUUGACAAACUAGAAAUAUCCGAGCCGGCCAAACACACCUCCAAACUGUAAGGCUGUGCACAAACAUAAAAAAUGGCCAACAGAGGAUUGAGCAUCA: 0.616 ratio
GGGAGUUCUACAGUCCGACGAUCGCCCGGAAAACUGUGAAAAAAAUACUUAGUGACAUUGGGUUGGAAUACUGUAAAGAACAUACCGAAGAUUUUAAACAGUUUGAACCUAAUGACUUUUAUUUGAAAAACACUACAUGGGAGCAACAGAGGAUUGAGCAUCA: 0.322 ratio
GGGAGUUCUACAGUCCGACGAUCUGGCGGCGGCUUUGGCUCUGAGGGACAGGGGUAGUGUUCCUGGUUUUGGUGGGGUUUGCCUUCCGUUUAAUUUUCCUUUUCUAGCUUCCCUUUGCCGGCUGGUGCGUACGUUGUAGUCCCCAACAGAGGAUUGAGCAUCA: 0.887 ratio
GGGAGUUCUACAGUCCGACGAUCUAGCGCCAUCUCAAAGGCCAUCUUUCCACCCUGGCAUGUGGCUAGGGUGUGUCCUGGAUCCACCGGGUGGGAGGAGGAGCCAGAUGGGUUUAUGAUACAUGGCUGUUUGAGAGUUCCCAUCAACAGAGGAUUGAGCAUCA: 0.0649 ratio
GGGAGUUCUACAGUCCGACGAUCUACAGCCUGGGCUCUAUGAAACUGUUUUAAACAAACAAAACAAAGAUGCCACCUCUAACUCCGUUGGCAGGGUUAGAGACUCAAUACAGUGCCAAACUUUAUAAAAAUAAACUGUGCUCUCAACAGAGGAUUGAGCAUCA: 0.244 ratio

Set 2 — method: DHFR PCA, deep sequencing; matrix: yeast; added: (+)-ABA 1.4 µM; reference: wild-type fitted maximum; direction: higher = stronger binding; endpoint: relative binding score
Target: ABI1, truncated, D143A, DHFR fusion (Arabidopsis thaliana)
Setting: methotrexate growth selection, single substitutions
Starting sequence: PYL1, truncated, DHFR fusion (Arabidopsis thaliana); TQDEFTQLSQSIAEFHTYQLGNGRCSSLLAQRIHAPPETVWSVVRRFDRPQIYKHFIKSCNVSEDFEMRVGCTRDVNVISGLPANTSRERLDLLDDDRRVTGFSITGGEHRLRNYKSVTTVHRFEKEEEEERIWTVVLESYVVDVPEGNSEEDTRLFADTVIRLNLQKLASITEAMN
E109A: 16.9%
S117M: 0.319%
R113Y: 22%
T135F: -10.2%
E38T: 26.8%
M176Q: 40.7%
M68Y: 20.6%
E129H: 64.9%
R69N: 39%
I133L: 55.2%
T154R: -7.3%
V145I: 43.3%
T17S: 32%
D92M: -1.01%
K58D: 6.58%
S11F: 37.3%
P50T: -4.69%
R88W: 7.57%
F15S: 5.39%
T17N: 3.04%
V142N: -12.2%
V62E: 2.82%

Set 3 — method: RNA Bind-n-Seq; form: RNA; matrix: in vitro; concentration: 365 nM; reference: no-protein control; direction: higher = stronger binding; endpoint: RBNS enrichment (R)
Target: RNA binding protein fox-1 homolog 2, RRM domain, GST-SBP tag (RBFOX2, Homo sapiens, UniProt O43251-10, residues 100-194)
Setting: natural RNA segment, single round, ends assumed
Residues (chain): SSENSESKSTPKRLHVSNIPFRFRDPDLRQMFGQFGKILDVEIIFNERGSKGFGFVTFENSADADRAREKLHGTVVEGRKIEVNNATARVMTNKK
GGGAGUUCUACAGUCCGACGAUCUUCCUCCCUCUAAAAUCAAAGAGCUGAAUUAUGUGAUCCUUGAGGUCUCUUCCACUUAUAAUACCAACUGUCUUGUCAGACUGGCAAAUUAUAUUGGCCUCUCCUUAUGUUGGAAUUCUCGGGUGCCAA: 0.735
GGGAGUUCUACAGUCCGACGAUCAAUAUAAACAAAGAUUCAUGAUUUAUAAAUGCCAUUUAUUUAUUGAUUCCUUUUUUCAAAAUCCAAAAAGAAAUGAUGUUGGAGAAGGGAAGUUGAACGAGCAUAGUCCAUGGAAUUCUCGGGUGCCAA: 0.444
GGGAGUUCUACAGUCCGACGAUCCUCUGAGGCACAGGGCGAGCAGGGACCAAGUAGCAGACGAGUCGAUGCUUCACCUGGCAUCUAGCCACUGCCUCCCACUUCUAGCAGAACUGGGUCAGCAGCCCUGUUCUUGGAAUUCUCGGGUGCCAA: 0.264
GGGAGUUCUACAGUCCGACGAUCGCCCCUUGUUCAUUCUCCUUCCUUUUUCCUCCCGCUUCCCUCUCCAUGAAGUGAUUCUGUUGACAAUAAUGUAUACUGCGCGUUCUCUUCACUGGUUUAUCUGCAGAAAUUGGAAUUCUCGGGUGCCAA: 0.481
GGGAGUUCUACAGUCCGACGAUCAGUGCUGAUUCUAUCACUUAUCUACCAGCUCUGUGACCUUGAACAAGCCGCUUAACCUUGCUAAGCCUCUGUUUUCUCAUAUGUCAAAUGGUGAUAAUAAUGCCUACCUCUGGAAUUCUCGGGUGCCAA: 0.279
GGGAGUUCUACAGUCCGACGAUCAAGUAGCUCAGAAAUUAAGAAAGAAUGGUAUAAUGAACCCCCAUAUACCCUUCCUUCUGGAUUCACCAAUUGUUAACAUUUUUUUCCUCUCAGCUAUCCUUCUAAUUUCUUGGAAUUCUCGGGUGCCAA: 0.576
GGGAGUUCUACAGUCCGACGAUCAAGAGCCUGGACAUGCCUACCCUGAAAGCAGCUGCCUUCAUUACCCUUUUCUGUGCGCCUGUUCUGAAGCCAACUUAAACCUGUCCACAUCUUCACUACCAUUCGCCCUUUGGAAUUCUCGGGUGCCAA: 0.47
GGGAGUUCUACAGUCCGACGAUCAGCUGGAUUUUCAAAAGCUUCAAAGUCUUGGUCUGUGAGUCACUCUUCAGUUUGGGAGCUGGGUCUGUGGCUUUGAUCAGAAGGUACUUUCAAAAGAGGGCUUUCCAGGGUGGAAUUCUCGGGUGCCAA: 0.517
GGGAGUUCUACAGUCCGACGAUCCCCUCCUUCCCCCCACCCCCGUGUGAAGUGUGUUAUCACCAGCAGACACUGCCGGACUCCUGCCCACAGGGGCGUGGCCUGAAGGGCGAGUGUGAACAUGGCACUGCUGUUGGAAUUCUCGGGUGCCAA: 0.638
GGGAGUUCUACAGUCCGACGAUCGUAGCUGGGUACAUUCCCCGUCAGUGUGACUUCCUUUCAUUUUGACAACUUCCUUCCUUUAAGAUGCUAAGUGGUGAACUUUACUGUUUUGUACAGUGAACUGUGACUUUUGGAAUUCUCGGGUGCCAA: 0.497
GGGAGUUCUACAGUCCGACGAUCAGACCAGGAGAAGCCACACCGUAACUCAGUCUGAGUCCAAAGCCCGAGAAGCCAGGGGCCACCCUGUGAGUCCCAGCAUCCAAAGCCCCGAGAACGAGGAAGAUGGAUGUUGGAAUUCUCGGGUGCCAA: 0.354
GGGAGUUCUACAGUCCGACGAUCUUAAUUUCUUUUGUUGCAUAACAAAAUAAAAGAAUUAUGUAUUUUUAACUAAGGAGAGACAUACUGGUAUAUCAUUUUACUACAAGCUACAGAUAACCUGUUGAGCUUGUUGGAAUUCUCGGGUGCCAA: 0.479

Set 4 — method: protein-binding microarray; form: double-stranded DNA, one strand shown; matrix: in vitro; concentration: 2540 nM top; setting: 60-bp whole probe; added: salmon DNA 0.4 mg/ml; reference: random background probes; direction: higher = stronger binding; endpoint: fitted relative affinity; shared flanks, not repeated: GCCTAGCAC … GTCTTGATTCGCTTGACGCTGCTG
Target: Interferon regulatory factor 3, full length, phosphomimetic (IRF3, Homo sapiens, UniProt Q14653, residues 1-427, S386D/S396D/S398D/S402D/T404D/S405D)
Target sequence (chain): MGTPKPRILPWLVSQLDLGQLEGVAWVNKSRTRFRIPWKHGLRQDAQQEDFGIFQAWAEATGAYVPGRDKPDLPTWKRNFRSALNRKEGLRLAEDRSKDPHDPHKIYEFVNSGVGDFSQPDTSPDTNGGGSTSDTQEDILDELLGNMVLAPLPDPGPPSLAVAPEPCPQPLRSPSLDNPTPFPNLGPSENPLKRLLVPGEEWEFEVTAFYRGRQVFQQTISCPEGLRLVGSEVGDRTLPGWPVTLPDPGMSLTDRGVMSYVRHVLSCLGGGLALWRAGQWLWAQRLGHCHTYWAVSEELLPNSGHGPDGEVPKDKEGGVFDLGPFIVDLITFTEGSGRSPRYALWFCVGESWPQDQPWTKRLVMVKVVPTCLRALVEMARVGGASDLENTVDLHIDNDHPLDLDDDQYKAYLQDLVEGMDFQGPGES
CACTCTCTACATGTGTTTACGTGCTAG: 1.71 z-score
GAAGCTTCCTCTCTGCCACTGTGCTAG: -0.0375 z-score
TTAGCTCTCGGTCTCGGTTAGTGCTAG: 0.221 z-score
TTAGTACTGGGGACTGGATTAGTGCTA: -0.574 z-score
GTCGGACTGGGGACTGGGGACGTGCTA: -0.539 z-score
GAGGGACTGCTACTGCTGACGTGCTAG: -0.98 z-score
GACGATATCTGGTATCGAGACGTGCTA: 0.264 z-score
GACGGTACCCTTATCCTGACGTGCTAG: 1.93 z-score
GACGGTCTCGGTATCGGAACGTGCTAG: 3.05 z-score
GACGATCTCAGTTTTGAGACGTGCTAG: 1.13 z-score
TTAGGACTGCTTCTGCTTTAGTGCTAG: -0.499 z-score
TTAAATTTCAGTTTCGATTAGTGCTAG: 6.01 z-score
GACGGACTGGGTTTCGGCACGTGCTAG: 0.437 z-score
TTAGGTTTGGGGACTGGGTTAGTGCTA: -0.886 z-score
GACGATTTCAAACTGGAGACGTGCTAG: 0.768 z-score
GAACCTTGGCCTCTAGGTTTGTGCTAG: -0.298 z-score
GACGGACTGATTTTCCTGACGTGCTAG: 0.203 z-score
TTAGAACTGGGGAATGGATTAGTGCTA: -0.617 z-score
GACGTTATCAGTTTCGAGACGTGCTAG: 3.59 z-score
GACGGTTTCGGGACGGGGGACGTGCTA: 3.89 z-score
TTAGAACTGAGACTGGAATAGTGCTAG: -0.265 z-score
GGATGACTCCCTCTCTGGCCGTGCTAG: 0.306 z-score
GATGGTATCGACTATCGGGACGTGCTA: 0.322 z-score
CCCTTTCTCTCTGTGACACAGTGCTAG: 5.3 z-score
TTAAGTATCCTACTGCTTTAGTGCTAG: 3.07 z-score

Some of these lines once more (set 4):
GACGATATCTGGTATCGAGACGTGCTA: 0.264 z-score
TTAGTACTGGGGACTGGATTAGTGCTA: -0.574 z-score
GACGGTTTCGGGACGGGGGACGTGCTA: 3.89 z-score
TTAGCTCTCGGTCTCGGTTAGTGCTAG: 0.221 z-score
GACGGACTGATTTTCCTGACGTGCTAG: 0.203 z-score
GACGTTATCAGTTTCGAGACGTGCTAG: 3.59 z-score
GTCGGACTGGGGACTGGGGACGTGCTA: -0.539 z-score
CACTCTCTACATGTGTTTACGTGCTAG: 1.71 z-score
